Measurements of several laboratories.
Parts stem from different laboratories: compare values within a part only.

Sample 1
Target: Centromere-binding protein 1, full length, His-tagged (CBF1, Saccharomyces cerevisiae, UniProt P17106, residues 1-351)
Sequence of UniProt P17106 (whole entry, looked up): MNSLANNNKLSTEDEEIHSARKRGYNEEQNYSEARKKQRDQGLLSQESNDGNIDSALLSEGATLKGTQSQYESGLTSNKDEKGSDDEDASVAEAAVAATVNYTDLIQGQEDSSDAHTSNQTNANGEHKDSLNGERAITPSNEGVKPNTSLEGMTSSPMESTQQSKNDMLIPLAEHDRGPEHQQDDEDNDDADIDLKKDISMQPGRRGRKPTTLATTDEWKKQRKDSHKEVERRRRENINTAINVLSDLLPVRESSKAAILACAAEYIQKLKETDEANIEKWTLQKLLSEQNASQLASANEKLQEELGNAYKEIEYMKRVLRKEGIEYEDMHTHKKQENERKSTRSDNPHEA
Method: competition protein-binding microarray
Form: double-stranded DNA, one strand shown
Sample: in vitro
Concentration: 2 µM
Notes: whole 60-bp probe, lowest competitor level
With: Pho4 competitor, 0.05 µM
Reading: higher = stronger binding
For `CTAACGAAGGTTTGATGGGTGGGTGACAAGCCAAGTGTCTTGATTCGCTTGACGCTGCTG`, the fluorescence intensity was 84.6 a.u.
With `AAAGCGGTAATTTGTCACATAACTTCACATATCTATGTCTTGATTCGCTTGACGCTGCTG` the fluorescence intensity was 90 a.u.
`AAGAGCTTTCTATTACATGTGGGAAGACTAATATAGGTCTTGATTCGCTTGACGCTGCTG` has a fluorescence intensity of 84.6 a.u.
`AACTTAGCACCATCGCGCGTGCATCGCTGTATGTGTGTCTTGATTCGCTTGACGCTGCTG` has a fluorescence intensity of 82.3 a.u.

Sample 2
Target: Histone acetyltransferase KAT6A, winged helix 2, GST fusion (KAT6A, Homo sapiens, UniProt Q92794, residues 85-181)
Method: protein binding microarray
Form: double-stranded DNA, one strand shown
Sample: in vitro
Concentration: not given
Notes: 8-mer, flanks averaged, mean of 2 arrays, mostly near background
Relative to: not given
Reading: higher = stronger binding
Target sequence (chain): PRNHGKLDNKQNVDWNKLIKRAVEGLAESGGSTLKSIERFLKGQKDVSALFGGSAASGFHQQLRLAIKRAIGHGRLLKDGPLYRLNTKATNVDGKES
For `AAGGGGGT`, the E-score was -0.113.
`CAGCAGAC` gave an E-score of 0.163.
`CCTTGGCG` has an E-score of 0.0132.
With `ACCGGTAG` the E-score was -0.154.
With `AGAACACC` the E-score was -0.0257.
`ATCTCGGG` has an E-score of 0.111.

Sample 3
Target: PABPC1L2, full length, GST fusion (mouse, UniProt A0ABA7IW68)
Method: RNAcompete
Form: RNA
Sample: in vitro
Concentration: 20 nM
Notes: 7-mer, probes averaged, single round
Relative to: mean of 7-mers
Reading: higher = stronger binding
Construct (chain): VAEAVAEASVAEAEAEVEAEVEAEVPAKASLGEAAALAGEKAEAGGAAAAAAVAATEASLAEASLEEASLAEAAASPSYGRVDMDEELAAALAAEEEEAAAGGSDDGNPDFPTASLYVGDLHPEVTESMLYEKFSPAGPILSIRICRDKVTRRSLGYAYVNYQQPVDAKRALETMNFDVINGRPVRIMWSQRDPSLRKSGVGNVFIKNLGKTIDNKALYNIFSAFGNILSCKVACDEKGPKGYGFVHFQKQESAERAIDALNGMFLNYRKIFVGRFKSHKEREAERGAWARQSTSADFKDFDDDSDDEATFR
For `GGGCCUU`, the 7-mer Z-score was -0.24.
`GCACGUG` gave a 7-mer Z-score of -0.106.
`CGUGGUC` has a 7-mer Z-score of -0.211.
The 7-mer Z-score of `CUAACUC` is reported as -0.257.
With `GCAGUAU` the 7-mer Z-score was -0.208.

Further values, each from its own experiment
With `PhoQ, residues 284 288 289 292 302 303 ASHLAV` the fold induction was 1.01 (PhoP, residues 12 14 15 18 19 HLGGL (Escherichia coli, UniProt P23836); Sort-seq, measured: YFP reporter; E. coli; PhoQ-PhoP variant library, with: 10 µM Mg2+; relative to: high Mg2+ state, higher = stronger signaling).
